# Measured values gathered from unrelated publications.
# Protocols differ between the studies behind these lines. ± gives the spread as reported. Ends that are not written are not given here. No end group written: not given here.
# ITGAM: ITGAM (Homo sapiens, UniProt P11215)
# TLR4/LY96: Toll-like receptor 4/MD-2 (TLR4/LY96, Homo sapiens, UniProt O00206+Q9Y6Y9)
# Chain of UniProt O00206 (whole entry, looked up): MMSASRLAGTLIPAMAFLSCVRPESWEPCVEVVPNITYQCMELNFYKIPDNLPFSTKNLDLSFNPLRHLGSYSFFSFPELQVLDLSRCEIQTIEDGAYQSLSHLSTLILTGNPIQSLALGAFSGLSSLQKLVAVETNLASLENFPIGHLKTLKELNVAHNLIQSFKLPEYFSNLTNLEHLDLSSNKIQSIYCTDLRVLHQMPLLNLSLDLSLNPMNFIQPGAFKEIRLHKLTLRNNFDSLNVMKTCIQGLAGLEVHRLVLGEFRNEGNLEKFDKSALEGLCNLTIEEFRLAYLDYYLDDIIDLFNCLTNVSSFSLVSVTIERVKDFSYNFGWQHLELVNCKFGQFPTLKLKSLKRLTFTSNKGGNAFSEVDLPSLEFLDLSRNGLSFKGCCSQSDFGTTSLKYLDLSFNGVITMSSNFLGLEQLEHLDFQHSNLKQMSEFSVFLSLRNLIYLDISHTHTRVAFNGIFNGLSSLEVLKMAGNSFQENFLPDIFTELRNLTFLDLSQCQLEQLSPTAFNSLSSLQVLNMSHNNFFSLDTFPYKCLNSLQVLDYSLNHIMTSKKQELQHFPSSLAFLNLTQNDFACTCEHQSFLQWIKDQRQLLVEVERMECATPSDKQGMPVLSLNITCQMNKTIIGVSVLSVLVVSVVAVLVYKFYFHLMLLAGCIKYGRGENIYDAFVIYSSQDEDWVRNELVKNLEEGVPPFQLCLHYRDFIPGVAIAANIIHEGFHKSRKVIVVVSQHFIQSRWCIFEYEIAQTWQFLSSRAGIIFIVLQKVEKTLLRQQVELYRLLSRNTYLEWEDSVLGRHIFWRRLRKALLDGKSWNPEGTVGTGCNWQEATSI
# Chain of UniProt Q9Y6Y9 (whole entry, looked up): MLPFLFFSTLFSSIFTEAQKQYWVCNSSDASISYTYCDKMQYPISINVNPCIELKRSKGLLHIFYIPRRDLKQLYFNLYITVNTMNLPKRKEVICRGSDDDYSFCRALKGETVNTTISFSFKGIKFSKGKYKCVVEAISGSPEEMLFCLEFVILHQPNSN
# B1: UGT1A9 (Homo sapiens, UniProt O60656); chain GKLLVVPMDGSHWFTMRSVVEKLILRGHEVVVVMPEVSWQLGRSLNCTVKTYSTSYTLEDLDREFKAFAHAQWKAQVRSIYSLLMGSYNDIFDLFFSNCRSLFKDKKLVEYLKESSFDAVFLDPFDNCGLIVAKYFSLPSVVFARGILCHYLEEGAQCPAPLSYVPRILLGFSDAMTFKERVRNHIMHLEEHLLCHRFFKNALEIASEILQTPVTEYDLYSHTSIWLLRTDFVLDYPKPVMPNMIFIGGINCHQGKPLPMEFEAYINASGEHGIVVFSLGSMVSEIPEKKAMAIADALGKIPQTVLWRYTGTRPSNLANNTILVKWLPQNDLLGHPMTRAFITHAGSHGVYESICNGVPMVMMPLFGDQMDNAKRMETKGAGVTLNVLEMTSEDLENALKAVINDKSYKENIMRLSSLHKDRPVEPLDLAVFWVEFVMRHKGAPHLRPAAHDLTWYQYHSLDVIGFLLAVVLTVAFITFKCCAYGYRKCLGKKGRVKKAHKSKTH
# B2: bovine β-casein; sequence looked up; chain RELEELNVPGEIVESLSSSEESITRINKKIEKFQSEEQQQTEDELQDKIHPFAQTQSLVYPFPGPIPNSLPQNIPPLTQTPVVVPPFLQPEVMGVSKVKEAMAPKHKEMPFPKYPVEPFTESQSLTLTDVENLHLPLPLLQSWMHQPHQPLPPTVMFPPQSVLSLSQSKVLPVPQKAVPYPQRDMPIQAFLLYQEPVLGPVRGPFPIIV
# Chain of UniProt Q8IXJ6 (whole entry, looked up): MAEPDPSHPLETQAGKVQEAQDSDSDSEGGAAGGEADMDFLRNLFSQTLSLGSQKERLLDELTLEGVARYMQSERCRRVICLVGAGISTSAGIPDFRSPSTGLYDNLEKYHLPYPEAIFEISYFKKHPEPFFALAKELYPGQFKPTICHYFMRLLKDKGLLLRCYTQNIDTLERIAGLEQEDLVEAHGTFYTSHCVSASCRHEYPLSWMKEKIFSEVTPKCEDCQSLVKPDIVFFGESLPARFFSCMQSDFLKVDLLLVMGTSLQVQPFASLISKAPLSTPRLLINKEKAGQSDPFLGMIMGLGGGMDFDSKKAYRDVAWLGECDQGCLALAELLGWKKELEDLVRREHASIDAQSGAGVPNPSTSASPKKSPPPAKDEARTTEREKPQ
# Chain of UniProt Q9UNE7 (whole entry, looked up): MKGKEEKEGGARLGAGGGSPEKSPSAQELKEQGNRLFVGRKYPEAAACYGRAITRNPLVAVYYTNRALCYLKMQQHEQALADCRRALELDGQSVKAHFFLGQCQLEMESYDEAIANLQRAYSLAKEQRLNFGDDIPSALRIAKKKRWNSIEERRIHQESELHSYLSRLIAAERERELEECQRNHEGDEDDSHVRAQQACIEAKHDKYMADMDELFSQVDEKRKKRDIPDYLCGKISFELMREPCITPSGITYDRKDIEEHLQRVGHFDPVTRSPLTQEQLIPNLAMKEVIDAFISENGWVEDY
# Chain of UniProt Q9FII5 (whole entry, looked up): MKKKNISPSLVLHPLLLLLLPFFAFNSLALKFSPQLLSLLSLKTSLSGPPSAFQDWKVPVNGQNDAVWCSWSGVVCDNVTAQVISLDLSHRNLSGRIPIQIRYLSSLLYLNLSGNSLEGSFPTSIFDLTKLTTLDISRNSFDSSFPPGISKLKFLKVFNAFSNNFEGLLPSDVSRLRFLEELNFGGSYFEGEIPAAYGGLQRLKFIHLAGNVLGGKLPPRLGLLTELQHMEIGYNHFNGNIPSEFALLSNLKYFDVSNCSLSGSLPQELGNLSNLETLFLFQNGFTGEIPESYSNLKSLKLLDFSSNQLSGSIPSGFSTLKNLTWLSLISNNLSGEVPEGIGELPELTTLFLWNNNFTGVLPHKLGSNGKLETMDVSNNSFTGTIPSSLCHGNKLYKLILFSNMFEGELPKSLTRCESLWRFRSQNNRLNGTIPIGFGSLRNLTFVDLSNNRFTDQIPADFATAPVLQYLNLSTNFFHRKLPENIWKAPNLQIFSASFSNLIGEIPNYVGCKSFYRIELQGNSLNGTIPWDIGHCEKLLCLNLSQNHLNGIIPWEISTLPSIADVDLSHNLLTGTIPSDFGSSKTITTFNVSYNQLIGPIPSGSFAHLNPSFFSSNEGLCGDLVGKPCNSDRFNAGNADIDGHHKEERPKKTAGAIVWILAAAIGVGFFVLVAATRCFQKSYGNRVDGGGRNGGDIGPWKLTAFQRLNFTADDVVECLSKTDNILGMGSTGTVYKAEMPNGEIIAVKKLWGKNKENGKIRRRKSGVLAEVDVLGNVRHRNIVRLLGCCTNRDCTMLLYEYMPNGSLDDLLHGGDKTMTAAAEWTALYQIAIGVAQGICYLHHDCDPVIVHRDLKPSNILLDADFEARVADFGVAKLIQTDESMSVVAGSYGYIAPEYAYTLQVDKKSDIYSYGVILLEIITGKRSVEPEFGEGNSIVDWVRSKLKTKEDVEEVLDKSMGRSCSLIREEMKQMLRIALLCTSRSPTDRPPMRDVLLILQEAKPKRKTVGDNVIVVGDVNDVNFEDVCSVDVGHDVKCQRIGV
Molecule,tested on,assay,system,conditions,how to read,endpoint,value
human Hsc70,"E3 ubiquitin-protein ligase CHIP (STUB1, Homo sapiens, UniProt Q9UNE7)","binder, biolayer interferometry",,"pH 7.4, 25 °C, kinetic, koff/kon",,Kd,70 ± 10 nM
plasminogen,ITGAM,binding,,,,Kd,100 nM
rat amylin,"Islet amyloid polypeptide (IAPP, Homo sapiens, UniProt P10997)",circular dichroism,,1 molar equivalents,,aggregation lag time,50 min
human cathepsin G,TLR4/LY96,ELISA,,"70 min, 37 °C",,Kd,> 100 nM
B1 (UGT1A9),O=C1[C@H](CC[C@H](O)c2ccc(F)cc2)[C@@H](c2ccc(O)cc2)N1c1ccc(F)cc1,steady-state kinetics,,"pH 7.4, 37 °C",,Vmax,7.36e-05 µmol/min/mg
human neutrophil elastase,TLR4/LY96,ELISA,,"70 min, 37 °C",,Kd,> 100 nM
angiostatin,ITGAM,binding,,,,Kd,400 nM
B2 (bovine β-casein),"Chymotrypsinogen A (Bos taurus, UniProt P00766)","substrate digestion, substrate",,"0.2 mg/mL, pH 8.0, 37 °C",relative to: CTRB1,relative digestion rate,0.93 fold
"HEVPSGPNPISA (TDIF N12A; also: GST tag, end not given here)","Leucine-rich repeat receptor-like protein kinase TDR, LRR domain (TDR, Arabidopsis thaliana, UniProt Q9FII5)",GST pull-down,peptide,"concentration not given, Arabidopsis",,binding,decreased
"EYSEEELKT (also: fluorescent label and quencher, sites not given here; sequence looked up)","NAD-dependent protein deacetylase sirtuin-2 (SIRT2, Homo sapiens, UniProt Q8IXJ6)","enzyme activity, substrate, continuous fluorescence",peptide,"5 to 15 min, pH 7.4, 37 °C, enzyme 0.3 µM, buffer 1, with: NAD+ 1 mM",,Km,1.05 ± 0.17 µM

# For quick reference, copied from above:
Molecule,tested on,assay,system,conditions,how to read,endpoint,value
human Hsc70,"E3 ubiquitin-protein ligase CHIP (STUB1, Homo sapiens, UniProt Q9UNE7)","binder, biolayer interferometry",,"pH 7.4, 25 °C, kinetic, koff/kon",,Kd,70 ± 10 nM
